# Published values from different studies.
# Protocols differ between the studies behind these lines. Several values in a cell are separate wells, animals, samples, runs or records.
# RAF1: RAF proto-oncogene serine/threonine-protein kinase (RAF1, Homo sapiens, UniProt P04049)
SMILES,target,assay,conditions,how to read,quantity,value
Cc1[nH]nc2c1N=C(c1ccccc1Cl)c1cnc(N3CCOCC3)cc1N2,RAF1,"enzyme activity, inhibitor",0.5 µM,,inhibition,7.2%
CCN1CCN(Cc2ccc(NC(=O)c3ccc(C)c(NC(=O)c4cncc(-c5cccs5)c4)c3)cc2C(F)(F)F)CC1,RAF1,"binding, competition with immobilised ligand",1 µM,,remaining binding,28%
COc1cc(Nc2nc(C)cc(-c3cnn4nc(OC)ccc34)n2)cc(C(F)(F)F)c1,RAF1,inhibitor,1 µM,baseline: control,remaining activity,100%
COc1c(OCCCN2CCOCC2)ccc2c1N=C(NC(=O)c1cnc(N)nc1)N1CCN=C21,RAF1,"kinase activity, inhibitor",1 µM,baseline: untreated control,remaining activity,100%
CN1CCN(Cc2ccc(NC(=O)c3cccc(C#Cc4cnc(N)c5ncccc45)c3)cc2C(F)(F)F)CC1,RAF1,"cell-free assay, competition with immobilised ligand",0.5 µM,,remaining binding,6.4%
C=CC(=O)N1CCc2ccc(-n3c(=O)ccc4cnc5ccc(-c6cnn(C)c6)cc5c43)cc21,RAF1,KINOMEscan,1 µM,baseline: DMSO control,remaining binding,89%
CNC1C[S+]2CC[S+]3CC[S+](C1)[Ru-4]321([N]=C=S)[n]2c3ccc(OC)cc3c3c4c(c5cc(F)c[n+]1c5c32)C(=O)NC4=O (centres unmarked),RAF1,KinomeScan,0.1 µM,baseline: untreated,remaining binding,100%
C=CC(=O)Nc1cccc(-c2cnc3[nH]cc(C(=O)NC(C)(C)C)c3n2)c1,RAF1,kinase activity,0.1 µM,,inhibition,-2% and 1%
NC(=O)[C@@H](O)C[C@H]1CCc2sc3ncnc(O[C@H]4CC[C@H](N5CCOCC5)CC4)c3c21,RAF1,"enzyme activity, inhibitor",10 µM,,inhibition,1%
C=C1CCCCCCCCCC(CO)C1=O (centres unmarked),RAF1,"cell-free assay, competition with immobilised ligand",10 µM,,remaining binding,97%
COc1ccc(NC(=O)Nc2ccc3c(c2)C(=O)N(C(C)CO)CC(C)C(CN(C)Cc2ccc4c(c2)OCO4)O3)cc1 (centres unmarked),RAF1,"binding, competition with immobilised ligand",10 µM,,remaining binding,100%
O=C(O)CCC(=O)c1cccc(NS(=O)(=O)c2c[nH]c3ncccc23)c1,RAF1,"kinase activity, radiometric",10 µM,,remaining activity,108%
COc1c(Cl)cccc1Nc1c(-c2ccncc2C#C[C@@]2(C)CCCN2C(=O)/C=C/CN(C)C)[nH]c2c1C(=O)NCC2,RAF1,"binding, competition with immobilised ligand",3 µM,,remaining binding,56%
Nc1ncc2c(n1)-c1c([nH]c3ccc(C4=CCOCC4)cc13)CCC2,RAF1,"binding, competition with immobilised ligand",1 µM,,remaining binding,100%
CCn1cc(C(=O)O)c(=O)c2c(N)c(F)c(NC3CCCCC3)cc21,"RAF1 (Homo sapiens, UniProt P04049, Y340E/Y341E)",kinase activity,"0.1 µM, with: ATP at Km",,inhibition,0.6%
Cc1cnc2nc1Nc1cccc(c1)COC/C=C/COCc1cc(ccc1OCCN1CCOCC1)N2,RAF1,"binding, competition with immobilised ligand",0.1 µM,,remaining binding,94%
O=C(Cc1ccc(OCc2ccccc2)cc1)NC1(C(=O)O)CCN(C(=O)c2ccc(-c3cccc(Cl)c3)cc2)CC1,RAF1,"enzyme activity, inhibitor",10 µM,,activity vs control,152%
C=CC(=O)N1CCCC(n2c(=O)c3ncccc3n(Cc3ccc(Oc4ccccc4)cc3)c2=O)C1 (centres unmarked),RAF1,"cell-free assay, competition with immobilised ligand",1 µM,,remaining binding,100%
C[C@H]1CN(C(=O)c2cn(-c3ccnc(N)n3)c3cc(C#CC4(O)CCCCC4)ccc23)CCN1,"RAF1 (Homo sapiens, UniProt P04049, Y340D/Y341D)","enzyme activity, inhibitor, FRET",1 µM,,inhibition,-2%
Cc1cccc(O[C@H]2CCC[C@@H](C(C)CNCc3ccncc3)C2)c1 (relative stereo),RAF1,"enzyme activity, inhibitor",10 µM,,inhibition,-11%

# Excerpt of the above:
SMILES,target,assay,conditions,how to read,quantity,value
C=CC(=O)N1CCCC(n2c(=O)c3ncccc3n(Cc3ccc(Oc4ccccc4)cc3)c2=O)C1 (centres unmarked),RAF1,"cell-free assay, competition with immobilised ligand",1 µM,,remaining binding,100%
